Measured values from different studies.
Each line is one published result; not all experiments were run side by side. Numbers after ± are the reported error.

Compound	tested on	test	test system	setting	quantity	result
CN[C@@](C)(C[18F])C(=O)O			mouse, blood	15 min, tumour-bearing	tracer uptake	2.4 %ID/g
C[C@H](NC(=O)C1CCNCC1)C(=O)Nc1ccc2c(c1)C(=O)c1ccc(NC(=O)[C@H](C)NC(=O)C3CCNCC3)cc1C2=O	HIV-1 nucleocapsid protein	cTAR DNA melting, inhibitor			IC50	24900 ± 2200 nM
Cc1[nH]ccc2c1[nH]c1cc(=O)ccc12	hedgehog pathway	alkaline phosphatase activity, inhibitor	C3H10T1/2	5 days, with: Shh	IC50	5200 nM
O=C1C=CC(=O)C=C1	cysteine peptide Ac-RFAACAA-COOH	peptide depletion, DPRA RapidFire-MS/MS		24 h, pH 7.5, room temperature, with: 5.0 µM cysteine peptide	IC50	4840 nM
NC[C@@H]1O[C@H](O[C@H]2[C@@H](O)[C@H](O[C@@H]3[C@@H](O)[C@H](N)C[C@H](N)[C@H]3O[C@H]3O[C@H](CO)C[C@H](O)[C@H]3N)O[C@@H]2CO)[C@H](N)[C@@H](O)[C@@H]1O	Mycobacterium smegmatis ribosome A1408G	translation, cell-free luciferase synthesis			IC50	0.89 ± 0.4 µg/mL
COC[C@@H](NC(C)=O)C(=O)NCc1ccc(-c2cccc(F)c2)cc1	voltage-gated sodium channel	peak sodium current, inhibitor, whole-cell patch clamp	CAD	0 mV from -80 mV holding	IC50	2200 ± 900 nM
CCCC/C=N/N(Cc1ccc(Cl)nc1)/C(N)=N/[N+](=O)[O-]	mAb-19F2 (BALB/c mouse monoclonal antibody)	antibody binding, indirect competitive ELISA			IC50	> 1 µg/mL
Cc1c2ccncc2c(C)c2c1[nH]c1ccccc12	NQO2	protection from toxicity	MDA-MB-468	3 h, with: CB1954 100 µM plus NRH 100 µM	IC50	54 ± 53 nM
Cc1cc(C)cc(C(=O)N(NC(=O)c2ccc3c(c2C)CCCO3)C(C)(C)C)c1	mAb-19F2 (BALB/c mouse monoclonal antibody)	antibody binding, indirect competitive ELISA			IC50	> 1 µg/mL
NC[C@@H]1O[C@H](O[C@H]2[C@@H](O)[C@H](O[C@@H]3[C@@H](O)[C@H](N)C[C@H](N)[C@H]3O[C@H]3O[C@H](CO)[C@@H](O)[C@H](O)[C@H]3N)O[C@@H]2CO)[C@H](N)[C@@H](O)[C@@H]1O	Mycobacterium smegmatis 70S ribosome	phenylalanine incorporation, inhibitor, cell-free translation	hybrid ribosomes 0.25 µM	60 min, 37 °C, with: (UUU)12 mRNA	IC50	2700 nM
CC[C@H](C)[C@@H]1C(=O)O[C@H]1C(=O)N[C@@H](CC(C)C)C(=O)N[C@H](C(=O)OCc1ccccc1)C(C)C	human proteasome β2 subunit				IC50	2950 ± 135 nM
NC[C@@H]1O[C@H](O[C@H]2[C@@H](O)[C@H](O[C@@H]3[C@@H](O)[C@H](N)C[C@H](N)[C@H]3O[C@H]3O[C@@H]4CO[C@@H](CCc5ccccc5)O[C@H]4[C@H](O)[C@H]3N)O[C@@H]2CO)[C@H](N)[C@@H](O)[C@@H]1O	Mycobacterium smegmatis ribosome A1408G	translation, cell-free luciferase synthesis			IC50	3.8 ± 2.4 µg/mL
CC[C@H](C)[C@@H]1C(=O)O[C@H]1C(=O)N[C@@H](COCc1ccccc1)C(=O)N[C@H](C(=O)OCc1ccccc1)C(C)C	human proteasome β2 subunit				IC50	759 ± 20 nM
Cn1sccc1=O	cysteine peptide Ac-RFAACAA-COOH	peptide depletion, DPRA RapidFire-MS/MS		24 h, pH 7.5, room temperature, with: 5.0 µM cysteine peptide	IC50	3630 nM
COc1ccc(C=O)cc1OC	anti-eugenol monoclonal antibody mouse	antibody binding, indirect competitive ELISA		antibody 0.25 µg/mL, with: coating antigen Eug-222-OVA 0.5 µg/mL	IC50	> 10 µg/mL
Cc1cc(Nc2nc(N[C@@H](C)c3ncc(F)cn3)ncc2Cl)n[nH]1	Stat5b, human	reporter gene, inhibitor, luciferase reporter	PC-3	1 h pretreatment, with: human prolactin 10 nM, 16 h	IC50	250 nM
CC[C@H](C)[C@@H]1C(=O)O[C@H]1C(=O)N[C@H](C(=O)N[C@H](C(=O)OCc1ccccc1)C(C)C)C(C)C	human proteasome β2 subunit				IC50	1430 ± 89 nM
C/C=C1\NC(=O)[C@@H](NC(=O)[C@@H](NC(=O)[C@H](C)NC(=O)C/C(C)=C/Cl)[C@@H](C)CC)[C@@H](C)OC(=O)[C@H](C(C)C)NC(=O)[C@H](Cc2ccc(O)cc2)N(C)C(=O)[C@H](Cc2ccccc2)N2C(=O)[C@H](CC[C@H]2O)NC1=O	bovine trypsin	enzyme activity, inhibitor		30 min, pH 7.4, 22 °C, with: Z-Leu-Arg-Arg-AMC	IC50	> 20000 nM

For quick reference, copied from above:
Compound	tested on	test	test system	setting	quantity	result
C[C@H](NC(=O)C1CCNCC1)C(=O)Nc1ccc2c(c1)C(=O)c1ccc(NC(=O)[C@H](C)NC(=O)C3CCNCC3)cc1C2=O	HIV-1 nucleocapsid protein	cTAR DNA melting, inhibitor			IC50	24900 ± 2200 nM
NC[C@@H]1O[C@H](O[C@H]2[C@@H](O)[C@H](O[C@@H]3[C@@H](O)[C@H](N)C[C@H](N)[C@H]3O[C@H]3O[C@H](CO)[C@@H](O)[C@H](O)[C@H]3N)O[C@@H]2CO)[C@H](N)[C@@H](O)[C@@H]1O	Mycobacterium smegmatis 70S ribosome	phenylalanine incorporation, inhibitor, cell-free translation	hybrid ribosomes 0.25 µM	60 min, 37 °C, with: (UUU)12 mRNA	IC50	2700 nM
COC[C@@H](NC(C)=O)C(=O)NCc1ccc(-c2cccc(F)c2)cc1	voltage-gated sodium channel	peak sodium current, inhibitor, whole-cell patch clamp	CAD	0 mV from -80 mV holding	IC50	2200 ± 900 nM
